Measured values collected from several papers.
Protocols differ between the studies behind these lines. Values joined by “and” are separate records of one study, mostly repeats; a detail may differ. ± gives the spread as reported.

SMILES	target or system	test	test system	conditions	scale	quantity	result
O=C1NC2(CC2)COc2ncc(F)cc2[C@H]2COCCN2c2ccn3ncc1c3n2	–	–	Sprague-Dawley rat, male, serum	oral, 10 mg/kg/day, 4 weeks daily, end of recovery period	–	alkaline phosphatase activity	91.4 ± 16.2 U/L
CC[C@H](C)[C@H](NC(=O)[C@@H]1CCCN1C(=O)CNC(=O)[C@H](CC(C)C)NC(=O)[C@H](CCCCN)NC(=O)[C@H](CCCNC(=N)N)NC(=O)[C@H](Cc1c[nH]c2ccccc12)NC(=O)[C@H](C)NC(=O)[C@H](CC(N)=O)NC(=O)[C@H](CCCCN)NC(=O)[C@H](CC(C)C)NC(=O)[C@H](CCCCN)NC(=O)[C@H](CC(N)=O)NC(=O)[C@H](CCCNC(=N)N)NC(=O)[C@H](C)NC(=O)[C@H](CCCNC(=N)N)NC(=O)[C@H](CCCNC(=N)N)NC(=O)[C@H](Cc1ccccc1)NC(=O)[C@H](Cc1c[nH]c2ccccc12)NC(=O)CN)C(=O)N[C@H](C(=O)NCC(=O)N1CCC[C@H]1C(=O)N[C@@H](CC(C)C)C(=O)N[C@@H](CC(C)C)C(=O)N[C@H](C(=O)N[C@@H](CCCNC(=N)N)C(=O)O)[C@@H](C)O)C(C)C	rat erythrocytes	haemolysis	–	1 h, 37 °C, 2% erythrocytes in PBS	–	HC50	3.05 log10 µg/mL
CC[C@H](C)[C@H](NC(=O)[C@@H](NC(=O)[C@H](CCCCN)NC(=O)[C@H](CCCCN)NC(=O)[C@@H](NC(=O)[C@H](Cc1c[nH]c2ccccc12)NC(=O)[C@H](CCCCN)NC(=O)[C@H](Cc1c[nH]c2ccccc12)NC(=O)[C@H](CC(C)C)NC(=O)[C@H](CCCCN)NC(=O)[C@H](CCCCN)NC(=O)[C@@H](N)C(C)C)[C@@H](C)CC)C(C)C)C(N)=O	sheep red blood cells	10% haemolysis	–	1 h, 37 °C	–	minimum haemolytic concentration	135 µM
CNC(=O)CC[C@H](Cc1ccccc1)NC(=O)[C@@H](Cc1ccc(Cl)cc1Cl)NC(=O)[C@H](N)Cc1ccccc1[N+](=O)[O-]	Huh-7-ACE2	CellTiter-Glo	–	0.000191 µM, 48 h, unit not given	reference: DMSO	viability	0.964 and 1.05 and 1.07
CC(=O)NCC(=O)N[C@@H](CCCNC(=N)N)C(=O)N[C@@H](CCCCN)C(=O)N[C@@H](CCCCN)C(=O)N[C@@H](CCCNC(=N)N)C(=O)N[C@@H](CCCNC(=N)N)C(=O)N[C@@H](CCC(N)=O)C(=O)N[C@@H](CCCNC(=N)N)C(=O)N[C@@H](CCCNC(=N)N)C(=O)N[C@@H](CCCNC(=N)N)C(=O)N1CCC[C@H]1C(=O)N[C@@H](CCC(N)=O)C(N)=O	HEK-293T	subcellular fractionation LC-MS	nuclear fraction	20 µM, 2 h	–	concentration	22.4 nM and 37.8 nM and 33.5 nM
CN(C)CCCNC(=O)[C@@H]1NC(=O)[C@@H]2Cc3ccc(cc3)Oc3cc4cc(c3O)-c3ccc5c(c[nH]c5c3)C[C@@H](NC(=O)C(NC(=O)CCCCCN)c3ccc(O)cc3)C(=O)N[C@H](c3ccc(O)cc3)C(=O)N[C@H]4C(=O)N[C@@H](C(=O)N2C)c2ccc(cc2)Oc2cc1ccc2O (stereo partly shown)	human red blood cells	–	–	4 µg/mL, 1 h, 37 °C, 1% DMSO	–	hemolysis	0.47%
CC(=O)c1c(O)c(C)c(O)c2c1OC1=CC(=O)C(=C(C)NCCCCOC3OC4OC5(C)CCC6C(C)CCC(C3C)C46OO5)C(=O)C12C (mixture of isomers)	L6 rat skeletal myoblasts	cytotoxicity, Alamar Blue	–	–	–	IC50	0.015 µM
COc1cc(/C=C/c2ccc3c(c2)[C@@H](c2cc(O)cc(O)c2)[C@H](c2ccc(O)cc2)O3)cc(OC)c1	dog cells	–	–	1 (unit not given)	–	CC50	345 µM
CCN(CCCCOc1ccc(CCC(=O)N2CCC(Cc3ccccc3)CC2)cc1OC)Cc1ccccc1	Caco-2 monolayer	–	–	40 µM, 120 min	–	Papp(A-B)	8.27 ± 0.03 ×10⁻⁶ cm/s
COc1cc(/C=C/C(=O)Oc2ccc(C(F)(F)F)c(C(F)(F)F)c2)ccc1O	HaCaT	cell growth or viability, MTT	–	24 h	–	CC50	14 µM
CC[C@H](C)[C@H](N)C(=O)N[C@@H](CCCNC(=N)N)C(=O)N[C@H](C(=O)N[C@@H](Cc1c[nH]c2ccccc12)C(=O)N[C@@H](Cc1ccccc1)C(=O)N[C@H](C(=O)N[C@@H](CCCCN)C(=O)N[C@H](C(=O)N[C@@H](CCCNC(=N)N)C(=O)N[C@@H](CCCCN)C(=O)N[C@@H](CCSC)C(=O)N[C@@H](CCCCN)C(=O)N[C@@H](C)C(=O)N[C@H](C(=O)N[C@@H](Cc1ccc(O)cc1)C(=O)N[C@@H](Cc1c[nH]cn1)C(N)=O)[C@@H](C)CC)C(C)C)[C@@H](C)CC)C(C)C	rat erythrocytes	–	–	200 µM, 60 min, 37 °C	–	hemolysis	33.5 ± 3.2%
CC[C@H](C)[C@H](NC(=O)[C@H](C)NC(=O)[C@H](CCCCN)NC(=O)[C@H](CCCCN)NC(=O)[C@@H](N)CCCNC(=N)N)C(=O)N[C@@H](CCCCN)C(=O)N[C@@H](CC(C)C)C(=O)N[C@H](C(=O)N[C@@H](CCCCN)C(=O)N[C@@H](CCCCN)C(=O)N[C@@H](CC(C)C)C(=O)N[C@H](C(=O)N[C@@H](CCCCN)C(=O)N[C@@H](CCCCN)C(=O)N[C@@H](CC(C)C)C(=O)N[C@@H](CCCCN)C(=O)N[C@@H](CCCCN)C(=O)N[C@@H](C)C(=O)N[C@@H](CC(C)C)C(=O)N[C@@H](CCCCN)C(=O)O)C(C)C)C(C)C	HaCaT	cell growth or viability, MTT	–	16 µg/mL	–	viability	81.1%
CC[C@H](C)[C@H](NC(=O)[C@@H](NC(=O)[C@H](CCCCN)NC(=O)[C@H](CCCCN)NC(=O)[C@@H](NC(=O)[C@H](Cc1c[nH]c2ccccc12)NC(=O)[C@H](CCCCN)NC(=O)[C@H](CCCCN)NC(=O)[C@H](CC(C)C)NC(=O)[C@H](CCCNC(=N)N)NC(=O)[C@H](CCCCN)NC(=O)[C@@H](N)C(C)C)[C@@H](C)CC)C(C)C)C(N)=O	sheep red blood cells	10% haemolysis	–	1 h, 37 °C	–	minimum haemolytic concentration	> 256 µM
CC[C@H](C)[C@H](NC(=O)[C@H](C)NC(=O)[C@H](CCCCN)NC(=O)[C@H](CC(C)C)NC(=O)[C@@H](N)Cc1ccccc1)C(=O)N[C@@H](CCCCN)C(=O)N[C@@H](CCCCN)C(=O)N[C@@H](Cc1ccccc1)C(=O)NCC(=O)N[C@@H](CCCCN)C(=O)N[C@@H](CCC(=O)O)C(=O)N[C@@H](Cc1ccccc1)C(=O)N[C@@H](CCCCN)C(=O)N[C@@H](CCCCN)C(=O)N[C@H](C(=O)NCC(=O)N[C@@H](C)C(=O)N[C@@H](CCCCN)C(=O)N[C@@H](CC(C)C)C(=O)N[C@@H](CCCCN)C(=O)O)[C@@H](C)CC	HeLa	MTT	–	8 mg/L	reference: untreated	cell growth	98.3% and 92.9% and 92.8%
CNC(=O)C[C@H](Cc1ccncc1)NC(=O)[C@@H](Cc1cccc(Br)c1)NC(=O)[C@@H](N)Cc1ccsc1	Huh-7-ACE2	CellTiter-Glo	–	0.000381 µM, 48 h, unit not given	reference: DMSO	viability	0.952 and 1.03 and 1
CC[C@H](C)[C@@H]1NC(=O)[C@H](C(C)C)NC(=O)[C@H](C(C)C)NC(=O)[C@H](CC(C)C)NC(=O)C[C@@H](C(=O)N[C@@H](Cc2c[nH]c3ccccc23)C(=O)N[C@@H](CC(N)=O)C(=O)N[C@@H](C)C(=O)N2CCC[C@H]2C(=O)NCC(=O)N[C@@H](Cc2c[nH]c3ccccc23)C(=O)N[C@@H](Cc2ccccc2)C(=O)O)NC(=O)[C@H](C)NC(=O)[C@H](CCC(N)=O)NC(=O)[C@H](C(C)C)NC1=O	SMMC-7721	–	–	10 µM	–	cytotoxicity	not toxic

A few entries again:
SMILES	target or system	test	test system	conditions	scale	quantity	result
CC[C@H](C)[C@H](NC(=O)[C@@H](NC(=O)[C@H](CCCCN)NC(=O)[C@H](CCCCN)NC(=O)[C@@H](NC(=O)[C@H](Cc1c[nH]c2ccccc12)NC(=O)[C@H](CCCCN)NC(=O)[C@H](CCCCN)NC(=O)[C@H](CC(C)C)NC(=O)[C@H](CCCNC(=N)N)NC(=O)[C@H](CCCCN)NC(=O)[C@@H](N)C(C)C)[C@@H](C)CC)C(C)C)C(N)=O	sheep red blood cells	10% haemolysis	–	1 h, 37 °C	–	minimum haemolytic concentration	> 256 µM
